Measured values of several laboratories.
Protocols differ between the studies behind these lines. Several values in a cell are separate wells, animals, samples, runs or records. ± gives the spread as reported.
LYN: Tyrosine-protein kinase Lyn (LYN, Homo sapiens, UniProt P07948)
Sequence of UniProt P07948 (whole entry, looked up): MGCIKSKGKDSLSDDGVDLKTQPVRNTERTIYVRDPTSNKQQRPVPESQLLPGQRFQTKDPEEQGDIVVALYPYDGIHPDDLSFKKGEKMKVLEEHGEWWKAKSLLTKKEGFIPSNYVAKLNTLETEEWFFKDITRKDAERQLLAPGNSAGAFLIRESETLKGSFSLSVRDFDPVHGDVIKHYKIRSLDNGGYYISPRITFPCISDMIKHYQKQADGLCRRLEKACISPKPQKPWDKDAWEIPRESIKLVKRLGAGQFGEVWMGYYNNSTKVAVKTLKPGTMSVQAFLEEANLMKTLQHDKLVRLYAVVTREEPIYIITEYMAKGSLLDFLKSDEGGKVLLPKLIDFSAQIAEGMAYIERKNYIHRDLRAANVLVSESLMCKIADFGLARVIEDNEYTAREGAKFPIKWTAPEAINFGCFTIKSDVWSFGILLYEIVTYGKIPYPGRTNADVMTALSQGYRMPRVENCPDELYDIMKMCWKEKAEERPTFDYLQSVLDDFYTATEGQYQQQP
PFF0160c E182D: Dihydroorotate dehydrogenase (quinone), mitochondrial (PFF0160c, Plasmodium falciparum, UniProt Q08210, E182D)
ACHE: Acetylcholinesterase (ACHE, Homo sapiens, UniProt P22303)
Sequence of UniProt D0VWV4 (whole entry, looked up): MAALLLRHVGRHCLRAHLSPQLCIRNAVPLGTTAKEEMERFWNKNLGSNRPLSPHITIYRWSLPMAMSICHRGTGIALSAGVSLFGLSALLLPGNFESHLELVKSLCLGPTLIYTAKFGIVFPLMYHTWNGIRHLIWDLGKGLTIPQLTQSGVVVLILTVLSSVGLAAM
Sequence of UniProt P22303 (whole entry, looked up): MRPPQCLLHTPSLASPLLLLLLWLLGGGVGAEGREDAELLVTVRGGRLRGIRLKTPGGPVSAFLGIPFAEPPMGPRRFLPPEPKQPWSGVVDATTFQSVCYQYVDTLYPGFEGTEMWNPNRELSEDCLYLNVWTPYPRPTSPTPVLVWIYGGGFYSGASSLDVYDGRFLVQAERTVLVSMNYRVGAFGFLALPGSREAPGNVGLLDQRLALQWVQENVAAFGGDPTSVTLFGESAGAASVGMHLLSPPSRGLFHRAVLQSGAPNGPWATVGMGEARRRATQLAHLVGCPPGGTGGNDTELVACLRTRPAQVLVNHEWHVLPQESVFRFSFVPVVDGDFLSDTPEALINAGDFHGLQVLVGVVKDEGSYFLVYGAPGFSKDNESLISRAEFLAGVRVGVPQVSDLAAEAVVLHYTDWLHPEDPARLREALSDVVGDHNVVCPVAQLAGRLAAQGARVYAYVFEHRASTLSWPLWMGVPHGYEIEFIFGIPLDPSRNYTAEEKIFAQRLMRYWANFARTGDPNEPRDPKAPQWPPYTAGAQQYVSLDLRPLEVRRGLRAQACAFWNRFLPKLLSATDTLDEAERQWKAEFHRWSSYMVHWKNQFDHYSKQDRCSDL
Sequence of UniProt Q007T0 (whole entry, looked up): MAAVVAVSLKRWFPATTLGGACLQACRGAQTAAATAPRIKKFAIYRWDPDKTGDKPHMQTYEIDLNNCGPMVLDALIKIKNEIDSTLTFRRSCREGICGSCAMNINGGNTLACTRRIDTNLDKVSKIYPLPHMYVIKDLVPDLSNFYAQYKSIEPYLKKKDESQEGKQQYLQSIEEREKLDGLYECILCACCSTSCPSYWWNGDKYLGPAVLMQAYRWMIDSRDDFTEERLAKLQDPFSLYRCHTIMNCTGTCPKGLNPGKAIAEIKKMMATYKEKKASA
Sequence of UniProt A5GZW8 (whole entry, looked up): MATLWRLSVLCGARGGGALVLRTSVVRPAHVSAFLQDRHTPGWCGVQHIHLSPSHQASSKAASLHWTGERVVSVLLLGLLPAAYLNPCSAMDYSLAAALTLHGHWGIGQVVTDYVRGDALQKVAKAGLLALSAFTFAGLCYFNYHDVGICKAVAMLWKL
Sequence of UniProt Q62351 (whole entry, looked up): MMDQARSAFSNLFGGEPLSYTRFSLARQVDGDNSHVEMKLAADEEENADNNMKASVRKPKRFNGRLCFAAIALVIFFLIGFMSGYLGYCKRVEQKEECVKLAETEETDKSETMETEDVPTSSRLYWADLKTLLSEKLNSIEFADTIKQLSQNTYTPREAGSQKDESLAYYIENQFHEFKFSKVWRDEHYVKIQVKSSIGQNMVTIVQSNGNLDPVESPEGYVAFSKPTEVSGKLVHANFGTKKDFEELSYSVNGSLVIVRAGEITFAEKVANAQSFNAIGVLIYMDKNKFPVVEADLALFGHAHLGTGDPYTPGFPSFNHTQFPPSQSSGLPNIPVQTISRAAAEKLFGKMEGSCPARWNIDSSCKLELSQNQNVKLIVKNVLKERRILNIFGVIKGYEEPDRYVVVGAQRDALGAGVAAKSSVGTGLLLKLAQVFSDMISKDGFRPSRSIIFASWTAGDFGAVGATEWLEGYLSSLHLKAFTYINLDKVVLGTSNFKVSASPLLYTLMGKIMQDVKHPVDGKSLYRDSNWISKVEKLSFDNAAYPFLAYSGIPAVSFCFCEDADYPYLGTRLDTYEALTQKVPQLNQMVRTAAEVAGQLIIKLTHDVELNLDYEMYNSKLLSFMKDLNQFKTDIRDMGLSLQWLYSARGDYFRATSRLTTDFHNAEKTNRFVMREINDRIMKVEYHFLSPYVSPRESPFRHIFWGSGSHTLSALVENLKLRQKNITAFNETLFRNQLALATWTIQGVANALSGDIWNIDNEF
Sequence of UniProt P49760 (whole entry, looked up): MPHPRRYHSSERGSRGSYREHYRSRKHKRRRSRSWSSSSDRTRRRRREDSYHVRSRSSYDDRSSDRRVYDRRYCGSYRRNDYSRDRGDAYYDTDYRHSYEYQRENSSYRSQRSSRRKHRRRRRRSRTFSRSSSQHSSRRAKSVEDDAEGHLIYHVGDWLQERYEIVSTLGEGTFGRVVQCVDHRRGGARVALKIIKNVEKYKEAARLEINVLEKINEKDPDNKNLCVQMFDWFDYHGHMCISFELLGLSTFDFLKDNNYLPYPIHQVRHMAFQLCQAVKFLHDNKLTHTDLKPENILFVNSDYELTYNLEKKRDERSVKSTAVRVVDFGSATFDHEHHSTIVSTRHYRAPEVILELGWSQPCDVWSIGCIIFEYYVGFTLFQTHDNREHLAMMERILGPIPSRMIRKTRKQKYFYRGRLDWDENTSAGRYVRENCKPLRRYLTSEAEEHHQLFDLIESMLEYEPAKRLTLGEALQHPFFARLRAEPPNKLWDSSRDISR
Sequence of UniProt O95881 (whole entry, looked up): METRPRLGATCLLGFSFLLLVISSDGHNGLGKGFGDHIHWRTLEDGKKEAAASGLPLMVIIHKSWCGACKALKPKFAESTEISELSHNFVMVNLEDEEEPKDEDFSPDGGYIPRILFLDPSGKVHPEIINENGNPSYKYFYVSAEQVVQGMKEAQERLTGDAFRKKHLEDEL
Sequence of UniProt P29597 (whole entry, looked up): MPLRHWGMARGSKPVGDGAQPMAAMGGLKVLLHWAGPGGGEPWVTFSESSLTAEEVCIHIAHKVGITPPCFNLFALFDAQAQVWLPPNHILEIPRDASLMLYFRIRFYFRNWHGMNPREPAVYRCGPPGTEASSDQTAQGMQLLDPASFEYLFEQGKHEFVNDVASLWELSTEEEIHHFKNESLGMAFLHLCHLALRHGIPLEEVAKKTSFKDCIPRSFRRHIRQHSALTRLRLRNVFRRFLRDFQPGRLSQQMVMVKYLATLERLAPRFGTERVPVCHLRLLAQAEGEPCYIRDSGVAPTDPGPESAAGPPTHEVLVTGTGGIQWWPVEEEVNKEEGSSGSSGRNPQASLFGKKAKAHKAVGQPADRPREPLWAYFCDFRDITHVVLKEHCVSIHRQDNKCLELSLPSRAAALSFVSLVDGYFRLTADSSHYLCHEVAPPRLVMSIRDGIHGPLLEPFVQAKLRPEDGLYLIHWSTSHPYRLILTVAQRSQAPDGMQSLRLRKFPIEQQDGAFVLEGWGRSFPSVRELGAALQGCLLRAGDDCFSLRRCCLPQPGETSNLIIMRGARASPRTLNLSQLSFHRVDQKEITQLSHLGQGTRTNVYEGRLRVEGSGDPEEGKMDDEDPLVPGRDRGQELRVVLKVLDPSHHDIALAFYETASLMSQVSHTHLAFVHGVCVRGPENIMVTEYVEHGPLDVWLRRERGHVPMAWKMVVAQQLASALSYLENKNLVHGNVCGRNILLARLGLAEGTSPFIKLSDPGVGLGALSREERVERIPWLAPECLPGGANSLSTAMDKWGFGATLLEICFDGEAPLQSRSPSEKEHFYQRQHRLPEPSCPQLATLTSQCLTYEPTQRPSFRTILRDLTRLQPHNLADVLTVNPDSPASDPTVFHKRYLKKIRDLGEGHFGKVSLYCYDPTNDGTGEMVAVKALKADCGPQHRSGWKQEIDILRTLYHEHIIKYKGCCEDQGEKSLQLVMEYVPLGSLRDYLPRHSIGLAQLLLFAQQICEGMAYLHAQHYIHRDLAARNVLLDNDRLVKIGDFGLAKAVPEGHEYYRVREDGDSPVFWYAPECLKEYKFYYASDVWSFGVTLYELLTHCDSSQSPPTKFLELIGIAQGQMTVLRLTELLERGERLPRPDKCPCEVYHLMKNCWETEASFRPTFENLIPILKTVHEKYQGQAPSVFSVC
Sequence of UniProt Q9GZZ6 (whole entry, looked up): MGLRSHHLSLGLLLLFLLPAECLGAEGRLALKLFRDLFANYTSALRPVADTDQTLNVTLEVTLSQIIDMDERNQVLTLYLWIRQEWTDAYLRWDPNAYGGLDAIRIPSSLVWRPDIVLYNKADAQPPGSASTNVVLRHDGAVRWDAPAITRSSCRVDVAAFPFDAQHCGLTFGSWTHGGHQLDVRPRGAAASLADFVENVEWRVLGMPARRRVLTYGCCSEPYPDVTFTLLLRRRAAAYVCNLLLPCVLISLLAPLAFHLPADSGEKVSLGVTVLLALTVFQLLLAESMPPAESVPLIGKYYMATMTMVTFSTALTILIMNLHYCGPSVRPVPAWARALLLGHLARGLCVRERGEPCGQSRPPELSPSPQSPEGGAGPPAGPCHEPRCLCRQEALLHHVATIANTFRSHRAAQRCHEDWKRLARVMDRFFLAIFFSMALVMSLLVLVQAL
Sequence of UniProt P12104 (whole entry, unmodified, looked up): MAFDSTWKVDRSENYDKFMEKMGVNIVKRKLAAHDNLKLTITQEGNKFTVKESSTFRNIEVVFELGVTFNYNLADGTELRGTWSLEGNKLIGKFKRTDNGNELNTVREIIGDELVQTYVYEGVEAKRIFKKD

Structure (SMILES)	tested on	assay	system	conditions	scale	measurement	result
COc1c(O)c(I)c2c3c1-c1cc4c(cc1CC3N(C)CC2)OCO4 (stereo not drawn)	Alpha-1A adrenergic receptor (ADRA1A, Homo sapiens, UniProt P35348)	calcium flux, antagonist, FLIPR	CHO-K1	with: norepinephrine		apparent Kb	60 ± 9 nM
COc1cc(N)c(Cl)cc1C(=O)NC1CN2CCC1CC2 (stereo not drawn)	G protein-coupled receptor 88 (Homo sapiens, UniProt Q9GZN0)	β-arrestin recruitment, TANGO luminescence, measured: GPR88		concentration not given	baseline: basal luminescence	log2 fold change	-0.333
[2H]c1c([2H])c([C@]2([2H])CCCN2C(=O)C(C)(C)Oc2ccc3cn[nH]c3c2)c([2H])c([2H])c1C([2H])([2H])[2H]	Non-receptor tyrosine-protein kinase TYK2, JH1 domain (TYK2, Homo sapiens, UniProt P29597)	KINOMEscan		1 µM	baseline: DMSO control	remaining binding	97%
CC(C)(C)C(=O)C1C(=O)c2ccccc2C1=O	Bile acid receptor (NR1H4, Homo sapiens, UniProt Q96RI1)			concentration not given		activity	inactive
CC(C)(C)C(O)C(Oc1ccc(-c2ccccc2)cc1)n1cncn1 (stereo not drawn)	Glideosome-associated protein 50 (GAP50, Plasmodium falciparum, UniProt Q8I2X3)	binding, surface plasmon resonance		1:1 binding model		kon	2.81e+06 M⁻¹ s⁻¹
COc1cc2nccc(Oc3ccc(NC(=O)c4cc5c(n(-c6ccccc6)c4=O)CCCC5=O)nc3)c2cc1OC	LYN	cell viability, CellTiter-Glo	Ba/F3 expressing recombinant kinase		baseline: LYN IC50 over AXL IC50	selectivity ratio	> 100
CCC1=C[C@@H]2CN3CCc4c([nH]c5ccccc45)[C@@](C(=O)OC)(C2)[C@@H]13	Nuclear receptor subfamily 2 group C member 2, ligand-binding domain (Homo sapiens, UniProt P49116)	SPR imaging		600 nM		koff	2.6e-07 s⁻¹
CC1CN(Cc2ccc(-c3ccc(C(=O)NCC4CCCO4)cn3)cc2)CC(C)O1.O=C(O)C(F)(F)F.O=C(O)C(F)(F)F (stereo not drawn)	PFF0160c E182D	enzyme activity, DCIP colorimetric			baseline: E182D mutant over wild type	IC50 ratio	0.7
COc1cc2c(Oc3ccc4[nH]c(C)cc4c3F)ccnc2cc1OCC1(N)CC1			paediatric recurrent refractory sarcoma	8 mg		grade 3 Appendicitis	0%
O=C(Nc1cnccc1Cl)N1CCN(Cc2ccc3c(c2)OC(F)(F)O3)CC1	Prostaglandin F2-alpha receptor (PTGFR, Homo sapiens, UniProt P43088)	radioligand binding, inhibitor		10 µM, human, with: [3H]PGF2alpha		inhibition	-14%
CCc1nonc1NC(=O)c1oc2c(C)c(C)ccc2c1C	PFF0160c E182D	enzyme activity, DCIP colorimetric			baseline: E182D mutant over wild type	IC50 ratio	2.4
CC[C@H]1NC(=O)[C@@H]2CSC(=N2)[C@H](Cc2ccccc2)N(C)C(=O)[C@@H]2CCCN2C(=O)[C@H](C(C)C)N(C)C(=O)[C@H](Cc2ccccc2)OC(=O)[C@H](C)[C@@H](C)NC(=O)[C@@H]([C@@H](C)O)NC(=O)[C@@H](CC(C)C)N(C)C(=O)[C@@H]2CSC1=N2	Dipeptidyl peptidase 8 (Homo sapiens, UniProt Q6V1X1)				baseline: IC50 DPP4 over DPP8	selectivity ratio	38.2 fold
C[C@]1(CO)Cc2ncn(-c3ccc(C#N)c(Cl)c3)c2C(=O)O1			healthy Japanese adults, plasma	40 mg once daily, after first dose, multiple dose		half-life	6 h
Nc1ccn([C@H]2C[C@H](O)[C@@H](COP(=O)(O)OP(=O)(O)OP(=O)(O)O)O2)c(=O)n1	DNA polymerase I, Klenow fragment (polA, Escherichia coli, UniProt P00582, C907S/D424A/L744C/Y766A)	substrate, single-turnover chemical quench		with: dNTP		kpol	25 s⁻¹
COc1cc(Nc2ncc(F)c(Nc3ccc4c(n3)NC(=O)C(C)(C)O4)n2)cc(OC)c1OC	LYN	KINOMEscan		10 µM		inhibition	98%
NP(N)(=O)NC(=O)c1ccc(F)cc1	ACHE		biochemical	concentration not given		activity class	inactive
Cc1ccc(N2CCc3c(-c4cc5cccnc5nc4C)cc(C)nc32)c(Cl)c1.O=C(O)C(F)(F)F.O=C(O)C(F)(F)F	PFF0160c E182D	enzyme activity, DCIP colorimetric			baseline: E182D mutant over wild type	IC50 ratio	0.1
O=C(c1ccc(Cl)cc1)N1CCN2C(=O)N(OC(=O)N3CCOc4ccccc43)C(=O)C2C1 (stereo not drawn)	Fatty-acid amide hydrolase 1 (FAAH, Homo sapiens, UniProt O00519)	enzyme activity, inhibitor, MS-based ABPP	SW-620 in situ	10 µM, 2 h, 37 °C	baseline: compound over DMSO, lower = stronger inhibition	median ratio	1.01
COc1ccc(N2C(=O)N(c3c(C)cccc3Cl)Cc3cnc(Nc4ccc(C5CCN(C)CC5)cc4OC)nc32)nc1	Dual specificity tyrosine-phosphorylation-regulated kinase 4 (DYRK4, Homo sapiens, UniProt Q9NR20)	kinase activity		0.5 µM		inhibition	3.35%
CCSc1nnc(C2CCCN(CC(=O)Nc3cc(C(F)(F)F)ccc3Cl)C2)n1CC (stereo not drawn)	PFF0160c E182D	enzyme activity, DCIP colorimetric			baseline: E182D mutant over wild type	IC50 ratio	4

Structure (SMILES)	tested on	assay	system	conditions	scale	measurement	result
COc1ccc2c3c([nH]c2c1)CCN(C)CC3.O=C(O)/C=C/C(=O)O	Neuronal acetylcholine receptor; alpha9/alpha10 (Homo sapiens, UniProt Q9GZZ6+Q9UGM1)	ion current, inhibitor, two-electrode voltage clamp	Xenopus laevis oocytes	with: 6 µM acetylcholine		Hill coefficient	2.2 ± 0.2
CC[C@H](C)[C@@H]1NC(=O)[C@@H]2CCCN2C(=O)[C@H](CC(C)C)NC(=O)[C@H](CC(C)C)NC(=O)CNC(=O)[C@@H](NC(=O)[C@@H](NC(=O)[C@H](CC(=O)O)NC(=O)CNC(=O)[C@@H](NC(=O)[C@H](C)NC(=O)CNC(=O)[C@H](CCCCN)NC(=O)[C@H](CC(C)C)NC(=O)[C@H](CC(C)C)NC(=O)[C@H](CCCCN)NC(=O)CNC(=O)[C@@H](NC(=O)[C@@H](N)CC(C)C)C(C)C)C(C)C)C(C)C)CSSC[C@@H](C(=O)O)NC1=O		RNA-seq, measured: Ubald2	mouse, traumatic brain injury model, frontal cortex and hippocampus	dose not given	baseline: TBI alone	log2 fold change	-1.42
Nc1ncc(-c2nc(N3CCOCC3)nc(N3CCOCC3)n2)c(C(F)F)n1	Mast/stem cell growth factor receptor Kit (KIT, Homo sapiens, UniProt P10721, T670I/V559D)	KINOMEscan		10 µM		remaining binding	26%
Cc1nn(C)cc1-c1nc2c(N3CCN(Cc4ccc(Cl)cc4)CC3)c(Cl)cnc2[nH]1	Dual specificity tyrosine-phosphorylation-regulated kinase 2 (DYRK2, Homo sapiens, UniProt Q92630)	KINOMEscan		1 µM	baseline: DMSO control	remaining binding	100%
CC/C(=C(\c1ccc(O)cc1)c1ccc(OCCN(C)C)cc1)c1ccccc1	Cannabinoid receptor 1 (CNR1, Homo sapiens, UniProt P21554)	measured: cAMP	CHO-hCB1 cells	10 µM	baseline: basal	adenylyl cyclase activity increase	17%
CC[C@@H](C)[C@@H](NC(=O)[C@@H](Cc1ccc(O)cc1)NC(=O)[C@H]1CCCN1C(=O)[C@@H](CCCNC(=N)N)NC(=O)[C@H](N)Cc1c[nH]cn1)C(=O)N[C@H](C)C(=O)N[C@H](Cc1c[nH]cn1)C(=O)N[C@H](CCCNC(=N)N)C(=O)N[C@H](CCCCNC(=O)c1cccc(S(=O)(=O)F)c1)C(=O)N[C@H](Cc1ccc(O)cc1)C(=O)N[C@H](CO)C(=O)N[C@H](Cc1ccccc1)C(N)=O	Transferrin receptor protein 1 (Tfrc, Mus musculus, UniProt Q62351)	flow cytometry	B16	24 h, unit not given	baseline: 0 h	surface expression	0.341
O[C@@H]1CCCC[C@H]1N1CCC(c2ccccc2)CC1 (racemic)	Vesicular acetylcholine transporter (Rattus norvegicus, UniProt Q62666)				baseline: Ki σ1 (human) over Ki VAChT	selectivity ratio	1.6
c1ccc2c3c(ccc2c1)-c1cccc2cccc-3c12	Aryl hydrocarbon receptor (Danio rerio, UniProt Q9YGV3)	reporter gene, agonist, luciferase reporter	ZF-4	4.572 µM	baseline: vehicle control	fold change	2.58
CC(C)(C)CC(C)(C)c1ccc(O)c(Cc2ccc(Cl)cc2Cl)c1	ACHE		biochemical	concentration not given		activity class	inactive
O=S(=O)(O)c1ccc2c(N=Nc3c(O)ccc4ccccc34)cccc2c1	Bcl-2-related protein A1 (Mus musculus, UniProt Q07440, C113S/P104K)	differential scanning fluorimetry		100 µM		delta Tm	14.8 °C
Cc1oc(-c2ccccc2)nc1CCOc1cccc2c1ccn2CCC(=O)O	Fatty acid-binding protein, intestinal (Homo sapiens, UniProt P12104, T55A)	binding, affinity selection mass spectrometry		100 nM, pooled screen	baseline: other proteins	fold change	32.5
CN1CCN(c2cc(-c3ccncc3)c(-c3ccc4ccccc4c3)nn2)CC1	Orexin/Hypocretin receptor type 1 (HCRTR1, Homo sapiens, UniProt O43613)	agonist, FLIPR		12.5 µM		activation	-2.4%
O=C(O)c1cc[c]([Hg][Cl])cc1	Beta-lactamase TEM (bla, Escherichia coli, UniProt P62593)	inhibitor				maximum inhibition	8 ± 5%
C[C@H]1CN(c2n[nH]c3nc(N[C@H]4CC[C@H](NS(=O)(=O)CCC(F)(F)F)CC4)ncc23)CCO1	Dual specificity protein kinase CLK2 (CLK2, Homo sapiens, UniProt P49760)	inhibitor, Kinobeads competition profiling		0.8 µM	baseline: vehicle	relative abundance	1.28
O=C(Nc1ccccc1)OCC(CN1CCCCC1)OC(=O)Nc1ccccc1 (stereo not drawn)	ACHE		biochemical	concentration not given		activity class	inactive
CCC(=O)O	medium-chain acyl-CoA synthetase A461K	substrate				Km	3.4 ± 0.3 mM
CC[C@H](C)[C@H](NC(=O)CNC(=O)[C@@H](N)CCCCN)C(=O)N[C@@H](CC(C)C)C(=O)N[C@@H](CCCCN)C(=O)N[C@@H](CCCNC(=N)N)C(=O)N[C@@H](CCC(=O)O)C(=O)N[C@@H](CCCCN)C(=O)N[C@@H](CCCNC(=N)N)C(=O)N[C@@H](CC(C)C)C(=O)N[C@@H](CCCNC(=N)N)C(=O)N[C@@H](CCCNC(=N)N)C(=O)N[C@@H](CCCCN)C(=O)N[C@@H](CC(N)=O)C(=O)N[C@H](C(=O)N[C@@H](Cc1c[nH]cn1)C(=O)N[C@@H](Cc1c[nH]c2ccccc12)C(=O)N1CCC[C@H]1C(=O)N[C@@H](CCC(=O)O)C(=O)N[C@@H](CCC(=O)O)C(=O)NCC(=O)N[C@@H](CCCCN)C(=O)N[C@@H](CC(C)C)C(=O)N[C@@H](CCCNC(=N)N)C(=O)N[C@@H](CCC(=O)O)C(=O)N[C@@H](Cc1ccc(O)cc1)C(=O)N[C@@H](Cc1ccccc1)C(=O)N[C@@H](Cc1ccc(O)cc1)C(=O)N[C@@H](Cc1ccccc1)C(=O)N[C@@H](CCC(=O)O)C(=O)N[C@@H](CC(C)C)C(=O)N[C@@H](CC(=O)O)C(=O)N[C@@H](CCC(=O)O)C(=O)N[C@@H](C)C(=O)N[C@@H](CCC(=O)O)C(=O)N[C@@H](CCCNC(=N)N)C(=O)N[C@H](C(=O)N[C@@H](CC(N)=O)C(=O)N[C@H](C(=O)O)C(C)C)C(C)C)C(C)C	Serine/threonine-protein phosphatase PP1-gamma catalytic subunit (Homo sapiens, UniProt P36873)	ITC		25 °C		−TΔS	-22.9 ± 9.5 kcal/mol
C#CCCCCNC(=O)CI	Thioredoxin domain-containing protein 12 (TXNDC12, Homo sapiens, UniProt O95881)	mass spectrometry profiling	Ramos cell lysate	100 µM over 10 µM, UniProt O95881	baseline: high over low concentration	reactivity ratio	1.36
C=C(CN(C(=O)c1c(C(F)F)nn(C)c1F)C1CC1)c1ccc(Cl)cc1Cl	SDHD/SDHC/SDHB (Sus scrofa, UniProt A5GZW8+D0VWV4+Q007T0)	enzyme activity, inhibitor, DCIP reduction	pig	0.2 µM, with: DCIP 160 µM		reaction velocity	0.0239 µM/s and 0.0214 µM/s and 0.022 µM/s

Some of these lines once more:
Structure (SMILES)	tested on	assay	system	conditions	scale	measurement	result
COc1cc2c(Oc3ccc4[nH]c(C)cc4c3F)ccnc2cc1OCC1(N)CC1			paediatric recurrent refractory sarcoma	8 mg		grade 3 Appendicitis	0%
NP(N)(=O)NC(=O)c1ccc(F)cc1	ACHE		biochemical	concentration not given		activity class	inactive
